Results pooled from the literature.
Each numbered part is a random draw from the data of one study; scales do not carry over between parts. Substitutions count along the parent as printed.

Sample 1
Target: Centromere-binding protein 1, full length, N-terminal tag (CBF1, Saccharomyces cerevisiae, UniProt P17106, residues 1-351)
Sequence of UniProt P17106 (whole entry, looked up): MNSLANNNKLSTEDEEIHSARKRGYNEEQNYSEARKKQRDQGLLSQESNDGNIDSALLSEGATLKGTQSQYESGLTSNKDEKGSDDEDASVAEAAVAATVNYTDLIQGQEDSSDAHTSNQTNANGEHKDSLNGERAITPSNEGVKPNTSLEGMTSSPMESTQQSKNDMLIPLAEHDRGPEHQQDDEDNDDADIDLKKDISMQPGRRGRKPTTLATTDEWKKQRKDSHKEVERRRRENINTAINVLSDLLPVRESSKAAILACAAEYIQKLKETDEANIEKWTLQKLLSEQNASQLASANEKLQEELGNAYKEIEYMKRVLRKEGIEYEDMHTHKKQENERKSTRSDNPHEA
Technique: protein-binding microarray
Form: double-stranded DNA, one strand shown
Matrix: in vitro
Concentration: 0.8 µM
Setting: whole 60-bp probe, no competitor
Direction: higher = stronger binding
Quantity: fluorescence intensity
Constant ends, left off below: … GTCTTGATTCGCTTGACGCTGCTG
CTAACCACACACTACGTCACAACACAACAAGACTTC: 588 a.u.
GAACTGTTTGTCAGTAAGTCACGTAGACCTGTATAG: 2110 a.u.
GAACACATATATCATCACCAATTACCATTTTCATAG: 547 a.u.
CTATTTAAATCGTGACATGTGCTTTAATAGAAATTC: 1900 a.u.
CTACTATTTCAGATTCGCGTGCGCTTCCTTTATTTC: 530 a.u.
CTAGAAAATTTTCACCACGAGCAGTTTCTTGTGTTC: 601 a.u.
GAAGGCTCAAGAATTTACGTGGTGCCCAATCAATAG: 475 a.u.
CTAAAAGGGGCTCCGGTGGTGATGAGGAGAGAATTC: 463 a.u.
CTAATTTGTCGTTGTGACCACAAAAAAGAATTCTTC: 818 a.u.
CTAAGAAAAGTTGATAACGTCAGGTGGAAAACCTTC: 827 a.u.
TGTACGAAGCTATGCATGACCACTATAGTAGTTAGG: 612 a.u.
CTACTATAAAATTTTCACATGCATTATATAGACTTC: 641 a.u.
CTAAATCTTCATAAATTCGTGACAAATTAAAATTTC: 545 a.u.
TGTACGAAGCTATTTCACACCATTATAGTAGTTAGG: 527 a.u.
CTATTGTAGCTACACCACGATTGAGTGTCTGCATTC: 513 a.u.
GAATCTTACATATATCAGGCGAAACGGTTATACTAG: 513 a.u.
GAACATACATAAAAGCACATGAAGGGCAGCAAATAG: 633 a.u.
CTAATGAACAGACACCACCATTGCTTCTTCTGCTTC: 531 a.u.
CTAGTGTGTCATTGTCATGTGTTCTTACTTCTTTTC: 1080 a.u.
CTAGGGAGGGAGGCGCATGTGCTCTATTACTTTTTC: 848 a.u.
CTAAAAAGAGAAAAACACGTGTGGAGAACTTTTTTC: 2930 a.u.
CCTAACTACTATAGTCACATAAGATAGCTTCGTACA: 537 a.u.
CTAATCGCATAACCGCACGTATATACACGCACATTC: 527 a.u.
GAAAAAAAAGCACTTCACGTTTTCCTGCATTTTTAG: 602 a.u.
GAAGTGGATGGTGCTGGTAACATCAAGCTGACCTAG: 511 a.u.

Sample 2
Target: Histone acetyltransferase KAT6A, winged helix 1, GST fusion (KAT6A, Homo sapiens, UniProt Q92794, residues 1-85)
Technique: protein binding microarray
Form: double-stranded DNA, one strand shown
Matrix: in vitro
Concentration: not given
Setting: 8-mer, flanks averaged, mean of 2 arrays, mostly near background
Reference: not given
Direction: higher = stronger binding
Quantity: E-score
Target sequence (chain): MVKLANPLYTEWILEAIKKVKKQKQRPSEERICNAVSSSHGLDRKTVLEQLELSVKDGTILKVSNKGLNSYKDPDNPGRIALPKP
CAGTACTC: -0.0714
CGTAGTTC: 0.155
CAGATGTA: 0.0133
AAGCGGAG: -0.0542
AAGGCCGT: 0.302
AATGCTTC: -0.0255
CAGTTTAG: -0.157
GTAGACTA: -0.0652
CACGTCCC: -0.0752
GCATCGGC: 0.252
AGAAACCG: 0.0938
AGAAGGAT: -0.167
AGTGTGAC: -0.288
ACGTTTCT: -0.275
ATATATAC: -0.0198
GGACCCCC: -0.00303
TCTGTGCA: -0.248
AACCTGAA: -0.29
ATATTTTC: -0.0457

Sample 3
Target: Interferon regulatory factor 7, full length, phosphomimetic (IRF7, Homo sapiens, UniProt Q92985, residues 1-503, S101K/S471D/S472D/S475D/S476D/S477D/S483D/S484D/S487D)
Sequence of UniProt Q92985 (whole entry, unmodified, looked up): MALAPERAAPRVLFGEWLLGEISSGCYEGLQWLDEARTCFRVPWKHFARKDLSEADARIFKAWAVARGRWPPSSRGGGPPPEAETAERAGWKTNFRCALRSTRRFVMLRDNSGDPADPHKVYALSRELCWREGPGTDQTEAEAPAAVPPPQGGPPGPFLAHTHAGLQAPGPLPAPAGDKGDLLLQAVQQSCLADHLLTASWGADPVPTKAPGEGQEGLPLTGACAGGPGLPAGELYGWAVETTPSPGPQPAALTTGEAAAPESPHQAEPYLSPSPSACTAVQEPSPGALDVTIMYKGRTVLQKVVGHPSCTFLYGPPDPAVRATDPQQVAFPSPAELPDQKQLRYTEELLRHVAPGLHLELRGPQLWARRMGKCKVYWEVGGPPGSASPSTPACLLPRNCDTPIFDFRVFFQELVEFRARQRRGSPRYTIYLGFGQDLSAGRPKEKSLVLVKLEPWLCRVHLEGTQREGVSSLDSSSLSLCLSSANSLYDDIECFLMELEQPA
Technique: protein-binding microarray
Form: double-stranded DNA, one strand shown
Matrix: in vitro
Concentration: 250 nM
Setting: 60-bp whole probe
Added: salmon DNA 0.4 mg/ml
Reference: random background probes
Direction: higher = stronger binding
Quantity: log fluorescence
Constant ends, left off below: GCCTAGCAC … GTCTTGATTCGCTTGACGCTGCTG
TCATCTAGGTTTTCTGGAACTGTGCTA: -0.185 z-score
CTTGCTTTCCAATTCTCTTTGTGCTAG: 1.37 z-score
GAGGATTTCAGTTCCGAGACGTGCTAG: 0.353 z-score
GACGGTATCTGACTGGGGACGTGCTAG: -0.422 z-score
TCTGGTTCCCATTCCAGGGTGTGCTAG: 2.25 z-score
GTAGGTTTCGGGTATCGGTTAGTGCTA: 7.43 z-score
TTAGCACTGAGTCTCGATTAGTGCTAG: 0.706 z-score
GACGATATCGGGTATCGAGATGTGCTA: 0.0847 z-score
AGTGATAACTTTTTTTTTTCGTGCTAG: -0.238 z-score
GACGAACTGAGTATCGAGGCGTGCTAG: -0.285 z-score
GACGCTTTCCTACTGCTGACGTGCTAG: 1.39 z-score
GATGGTATCGGGTATCGGGACGTGCTA: 0.336 z-score
GACGGTATCGGGCTCGGGACGTGCTAG: -0.377 z-score
GACTAACTGGGGTTTCGAGACGTGCTA: 2.39 z-score
TTAGGACCGCTTCTCCTTTAGTGCTAG: 3.19 z-score
GACGTTCTCAGTATCGAGACGTGCTAG: 0.736 z-score
TTAAGTCTCCTTCTCCTTTAGTGCTAG: 0.615 z-score
GTCGATATCGGGTTTCGAGACGTGCTA: 3.64 z-score
ACCTGTATATCTTCAGCGGGGTGCTAG: -0.11 z-score
TTAGGTATCCTACTACTTTAGTGCTAG: 0.0973 z-score
CTTCCTTTACTTTCTTTTTTGTGCTAG: 2.21 z-score
GGGGGAAATGGGAAACCCGGGGTGCTA: 1 z-score
GTCGGACTGGGACTGGGGACGTGCTAG: -0.424 z-score
GACGATTGCAGTCTCGAGACGTGCTAG: -0.0453 z-score
GGCGGTCTCCTACTGCTGACGTGCTAG: -0.915 z-score

Sample 4
Target: RING finger protein unkempt homolog, zinc fingers 1-6, GST-SBP tag (UNK, Homo sapiens, UniProt Q9C0B0, residues 30-357)
Sequence of UniProt Q9C0B0 (30-357, looked up): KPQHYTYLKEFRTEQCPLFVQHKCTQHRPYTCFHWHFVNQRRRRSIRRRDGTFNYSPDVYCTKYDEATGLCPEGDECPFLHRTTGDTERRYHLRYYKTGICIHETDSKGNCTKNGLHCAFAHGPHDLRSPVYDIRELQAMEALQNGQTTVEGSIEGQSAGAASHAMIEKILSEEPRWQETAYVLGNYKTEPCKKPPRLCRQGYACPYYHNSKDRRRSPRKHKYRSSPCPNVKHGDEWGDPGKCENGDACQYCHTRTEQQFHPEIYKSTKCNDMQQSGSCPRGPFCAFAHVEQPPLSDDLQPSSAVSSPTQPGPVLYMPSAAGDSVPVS
Technique: RNA Bind-n-Seq
Form: RNA
Matrix: in vitro
Concentration: not given
Setting: RNA with constant flanks, human-mouse chimeric sites, ends assumed
Reference: input RNA pool
Direction: higher = stronger binding
Quantity: bound/input enrichment
Constant ends, left off below: GGGAGUUCUACAGUCCGACGAUC … CAACAGAGGAUUGAGCAUCA
CAGGGCAUCAUCUCUCGAGCUGUUAAACACCUGUUCAAGAGUAUUGAUGAGAAAAAGACCUCAGCGAUUAAAAACGGGCUUCCUGCUCCUGAAUUCAAAGUGAAUGCCCAGUUCCUAGAG: 0.184 ratio
GGAAUUGCUGAUUCAAGUAAGUUUGAGUAUCACAAUGUUAGCUUUCUAAUUCCAUAAAAGUACUUGGUUUUUACAGUUUAUAAUCUGCAAUCCAUCAAGCGCCAUUUGUAAAGAGCAACU: 0.369 ratio
AGAAUCUUGGGACUGUUUUACUUAAUUGGUCAUUGGUAGCUUAACAAGCAUGGAGAUAAGAUUAGAAAUCUUGACAUCAACAGGUAUUAAGCAGAAAAAACCAUGGCCACGUGUCUCCUG: 0.11 ratio
AGAUUCCCCCUCCUGAGGCCUUCUCCAAAGUUGGAGUCUCUUACAGAUGCCUCAUCCCCUGUUAGCGUUUUAGUUUGGACCACCCAGCCUUGGACAAUUCCCGCCAACCAGGCAAUUUGC: 1.98 ratio
UUGAAAACUGAUUCAAGCAAGUUUGAAUAUCACAAUGUUAGCUUUCUAAUUCCAUAAAGAUAGUUUUUUUUUACAGUUUAUAAUCUGACAUCACCCCAGCGCCAUUUGUAAAGAGCAACU: 9.16 ratio
GAUAGGAAAAGCUUGUUGGAGACCCGCUUGCAUGUCACUGGUAGAGACCUGAGGUGUCAAAUAGCUGAAACUUUCGGACUUCAAGAAAAUUACAUCAAGAUCGUAAUAAAUAAGAAACAG: 0.527 ratio
GGUGGGGUGGUCAUUGCCGUUUGAGCUGCUGAUUUUCAUGAGUCGCCCAUUCAGAACUCGUGUAGGGUUGACAAUGUGGGGGGGUGGGAAAUCUAGCUUAUUCUUUUAUUUUCAAGUCCA: 5.43 ratio
GGCUGCUGGUGACUGUCGGGAGCCGUCUGGAGUUCCCCCGGAACCUGGGCCAGACUAAUUUUAGAAAAUGCCAAGUAGGAAGUUUGUUGAGGGUGAAGUGGUCAGAGGCCGAUGGCCUGG: 2.31 ratio
GUGACUGGUGUUAAGAUUUCCCCUCAGCAAAGAAGUGCAGUAGUCACCAUAAUUCCAUCUGUGGUGAGUGCCAGUCAGAUAAAAGAGCUGGUUCCAGACCUCAGUUUAGACAUGGGAACU: 0.253 ratio
UAAGUCCUGUGCCAGCACUUCGCUCAUUAUAUUUUAAAUUCUGGACCAAUAGUGUUUGUUUCCUGAUUAUUGUAUCCAAUACUUUAUCUAGUAUGUAACUCACUCUUACUGAUAAUAAAA: 3.52 ratio
UUUGUUUUUAUGCUAAGCACGCGUGCUGGUGGUCUGGGCAUCAAUCUUGCAACUGCUGAUGUAGUCAUUUUAUAUGACUCAGAUUGGAAUCCGCAAGUUGAUCUUCAGGCUAUGGACCGU: 0.125 ratio

Sample 5
Target: CCNA1, cyclin fold, Cln2 fusion (human)
Technique: yeast growth competition, sequencing
Matrix: yeast
Setting: weak parent motif
Reference: not given
Direction: higher = stronger binding
Quantity: normalised enrichment score
Starting sequence: GMNC docking peptide (human); KNAKRNLSSEFAN; partner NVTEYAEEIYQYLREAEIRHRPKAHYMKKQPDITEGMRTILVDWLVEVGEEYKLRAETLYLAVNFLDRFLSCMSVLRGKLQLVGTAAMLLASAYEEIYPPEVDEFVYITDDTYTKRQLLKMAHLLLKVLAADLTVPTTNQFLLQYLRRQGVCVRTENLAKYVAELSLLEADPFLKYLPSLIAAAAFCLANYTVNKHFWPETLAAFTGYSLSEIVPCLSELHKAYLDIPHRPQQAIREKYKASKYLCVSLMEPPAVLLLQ
KNAKRMLSSEFAN [N6M]: 0.253
KNAKRNLSSAFAN [E10A]: -0.0957
KNAERNLSSEFAN [K4E]: 0.0131
KDAKRNLSSEFAN [N2D]: 0.454
KNAKGNLSSEFAN [R5G]: 0.00981
KNAKRELSSEFAN [N6E]: 0.432
KNAKRHLSSEFAN [N6H]: -0.424
KNAKRALSSEFAN [N6A]: -0.0316
KNSKRNLSSEFAN [A3S]: 0.572
KIAKRNLSSEFAN [N2I]: 0.519
KNAKRNLSSFFAN [E10F]: -0.22
KNAKRNRSSEFAN [L7R]: 0.256
KNAKRNLSSEWAN [F11W]: 0.449
KNAKRNLSSEFYN [A12Y]: 0.172
KNAKRNLSSGFAN [E10G]: 0.0914
KNAGRNLSSEFAN [K4G]: 0.549
KNAKRNWSSEFAN [L7W]: 0.201

Some of these lines once more (sample 3):
GATGGTATCGGGTATCGGGACGTGCTA: 0.336 z-score
GACGGTATCGGGCTCGGGACGTGCTAG: -0.377 z-score
GACTAACTGGGGTTTCGAGACGTGCTA: 2.39 z-score
TTAGGACCGCTTCTCCTTTAGTGCTAG: 3.19 z-score
GACGTTCTCAGTATCGAGACGTGCTAG: 0.736 z-score
